Measurements pooled from the literature.
Lines come from different studies, so protocols differ. Several values in a cell are separate wells, animals, samples, runs or records. Numbers after ± are the reported error.
Complement C3: Complement C3 (Homo sapiens, UniProt P01024)
lecA: PA-I galactophilic lectin (lecA, Pseudomonas aeruginosa, UniProt Q05097)

CC[C@H](C)[C@H](NC(C)=O)C(=O)N[C@H]1CSSC[C@@H](C(=O)N[C@@H](Cc2c[nH]c3ccccc23)C(N)=O)NC(=O)[C@H](CCCNC(=N)N)NC(=O)[C@H](Cc2c[nH]cn2)NC(=O)[C@H](C)NC(=O)CNC(=O)[C@H](Cc2c[nH]c3ccccc23)NC(=O)[C@H](CC(=O)O)NC(=O)[C@H](CCC(N)=O)NC(=O)[C@H](Cc2c[nH]c3ccccc23)NC(=O)[C@H](C(C)C)NC1=O  Kd (Complement C3; surface plasmon resonance; 25 °C, 1:1 binding model): 0.7 µM
O=C(COCc1ccccc1)N[C@@H](Cc1cn(CCNC(=O)c2ccc(S[C@@H]3O[C@H](CO)[C@H](O)[C@H](O)[C@H]3O)cc2)nn1)C(=O)NCCO  Kd (lecA; binding, ITC): 6.3 µM
CC(=O)N[C@H](C(=O)N1CCC[C@H]1C(=O)N1CCC[C@H]1C(=O)N1C[C@@H]2C[C@H]1C(=O)N[C@@H](C(C)C)C(=O)N1CCC[C@H]1C(=O)N1C[C@@H](C[C@H]1C(=O)N[C@@H](CCCNC(=N)N)C(=O)N[C@@H](CCCNC(=N)N)C(=O)N[C@@H](CCCNC(=N)N)C(N)=O)OCCC=CCO2)C(C)C  Kd (Growth factor receptor-bound protein 2, N-terminal SH3 domain (GRB2, Homo sapiens, UniProt P62993); binding, tryptophan fluorescence; PBS; 21 °C): ~24 µM and 24.2 µM
CC(C)[C@H](NC(=O)[C@H](CCC(=O)O)NC(=O)[C@H](Cc1ccc(O)cc1)NC(=O)CNC(=O)[C@H](CO)NC(=O)[C@H](CC(=O)O)NC(=O)[C@H](Cc1c[nH]cn1)NC(=O)[C@H](CCCNC(=N)N)NC(=O)[C@H](Cc1ccccc1)NC(=O)[C@H](CCC(=O)O)NC(=O)[C@H](C)NC(=O)[C@@H](N)CC(=O)O)C(=O)N[C@@H](Cc1c[nH]cn1)C(=O)N[C@@H](Cc1c[nH]cn1)C(=O)N[C@@H](CCC(N)=O)C(=O)N[C@@H](CCCCN)C(=O)O  Kd (Polyubiquitin-B (UBB, Homo sapiens, UniProt P0CG47); ubiquitin binding, microscale thermophoresis; 25 °C): 340 µM
CC(C)[C@@H]1NC(=O)[C@@H](NC(=O)[C@@H](N)CCC(N)=O)CSSC[C@@H](C(=O)N[C@@H](Cc2c[nH]c3ccccc23)C(N)=O)NC(=O)[C@H](CCC(N)=O)NC(=O)[C@H](CC(N)=O)NC(=O)[C@H](CCC(N)=O)NC(=O)CNC(=O)[C@H](Cc2c[nH]c3ccccc23)NC(=O)[C@H](CC(=O)O)NC(=O)[C@H](CCC(N)=O)NC(=O)[C@H](Cc2c[nH]c3ccccc23)NC1=O  Kd (Complement C3; surface plasmon resonance; 25 °C, two-state reaction model): 0.99 µM
CC[C@H](C)[C@@H]1NC(=O)[C@H](CCC(N)=O)NC(=O)CNC(=O)[C@H]([C@@H](C)O)NC(=O)[C@H](Cc2c[nH]c3ccccc23)NC(=O)[C@H](CCCNC(=N)N)NC(=O)[C@H](C)NC(=O)[C@H](C(C)C)NC(=O)[C@H](CCCNC(=N)N)NC(=O)[C@@H]2CCCN2C(=O)[C@H](CCCNC(=N)N)NC(=O)[C@@H](Cc2c[nH]c3ccccc23)NC(=O)CSC[C@@H](C(=O)N[C@@H](CO)C(N)=O)NC(=O)[C@H](Cc2ccc(O)cc2)NC(=O)[C@H]([C@@H](C)CC)NC1=O  Kd (Plexin-B1 (Plxnb1, Mus musculus, UniProt Q8CJH3); binding, surface plasmon resonance): no binding
Cc1cc(C)cc(COc2cc3c(cc2OCc2cc(C)cc(C)c2)C2CC(O)CC(C)N2CC3)c1 (stereo not shown)  Kd (Rab GDP dissociation inhibitor beta (Homo sapiens, UniProt P50395); binding, BLI): 46 µM
O=C(COc1ccc2ccccc2c1)N[C@@H](Cc1cn(CCNC(=O)c2ccc(S[C@@H]3O[C@H](CO)[C@H](O)[C@H](O)[C@H]3O)cc2)nn1)C(=O)NCCO  Kd (lecA; binding, ITC): 7.6 µM
CC[C@H](C)[C@H](NC(C)=O)C(=O)N[C@H]1CSSC[C@@H](C(=O)N[C@H](C(N)=O)[C@@H](C)O)NC(=O)[C@H](CCCN=C(N)N)NC(=O)[C@H](Cc2c[nH]cn2)NC(=O)[C@H](C)NC(=O)CNC(=O)[C@H](Cc2c[nH]c3ccccc23)NC(=O)[C@H](CC(=O)O)NC(=O)[C@H](CCC(N)=O)NC(=O)[C@H](Cc2ccc(O)cc2)NC(=O)[C@H](C(C)C)NC1=O  Kd (Complement C3; binding, ITC; pH 7.4): 0.556 µM
CC[C@H](C)[C@H](NC(=O)[C@H](CCCNC(=N)N)NC(=O)NC[C@H](CCC(N)=O)NC(=O)NC[C@H](CC(C)C)NC(=O)NC[C@H](CCCNC(=N)N)NC(=O)NC[C@H](C)NC(=O)[C@H](CCCCN)NC(=O)[C@H](CCC(=O)O)NC(C)=O)C(=O)N[C@@H](C)C(N)=O  Kd (Histone chaperone ASF1A (Homo sapiens, UniProt Q9Y294); binding, ITC; pH 7.5): 13.3 µM
C[C@H](N)C(=O)N[C@@H](CCCNC(=N)N)C(=O)N[C@H](C(=O)N[C@@H](CCCCN(C)C)C(=O)N[C@@H](CCC(N)=O)C(=O)N[C@H](C(=O)N[C@@H](C)C(=O)N[C@@H](CCCNC(=N)N)C(=O)N[C@@H](CCCCN)C(=O)N[C@@H](CO)C(=O)N[C@H](C(=O)NCC(=O)NCC(=O)N[C@@H](CCCCN)C(=O)N[C@@H](C)C(=O)O)[C@@H](C)O)[C@@H](C)O)[C@@H](C)O  Kd (Histone-lysine N-methyltransferase 2A, PHD3-bromodomain cassette (KMT2A, Homo sapiens, UniProt Q03164, del1666-1702); binding, isothermal titration calorimetry; pH 7.5, 25 °C, coexpressed protein complex, added: H3K4me peptide): 6.9 µM
CCC(C)N(C)C(=O)c1nc(-c2cccc(C(F)(F)[18F])c2)c2ccccc2n1 (stereo not shown)  Kd (Translocator protein (Tspo, Mus musculus, UniProt P50637); binding; RAW264.7; 2 h, 37 °C): ~0.0133 µM
C[n+]1cc2cc3cc(ccc31)NC(=O)CCCCC(=O)Nc1ccc3c(c1)cc(c[n+]3C)C(=O)NCc1cccc(c1)CNC2=O  Kd (cKIT2 G-quadruplex DNA; microscale thermophoresis): 5.11 ± 0.96 µM
CCOP(=O)(CC(=O)Nc1ccc(S(=O)(=O)N(CC(N)=O)c2ccc(N(CC(N)=O)S(=O)(=O)c3ccc(OC)cc3)c3ccccc23)cc1)OCC  Kd (Kelch-like ECH-associated protein 1 (KEAP1, Homo sapiens, UniProt Q14145); binding, FP): 0.94 µM
C[n+]1ccc(/C=N/NC(=O)c2cncc(C(=O)N/N=C/c3cc[n+](C)c4ccccc34)n2)c2ccccc21  Kd (telomeric G4 DNA hybrid-2; binding, fluorescence titration; 100 mM KCl buffer; pH 7.2, added: labelled G4 DNA 2 nM): 0.0238 ± 0.0018 µM
CC(C)C[C@@H](N)C(=O)N[C@H](CC(=O)O)C(=O)N[C@@H](C(=O)N[C@H](Cc1ccccc1)C(=O)N[C@H](CC(C)C)C(=O)N[C@H](Cc1ccc(O)cc1)C(=O)N[C@H](CO)C(=O)N[C@H](CCC(=O)O)C(=O)O)C(C)C  Kd (Signal transducer CD24 (CD24, Homo sapiens, UniProt P25063); binding, microscale thermophoresis; PBS, 0.05% Tween20, 5% DMSO): 9.22 ± 6.47 µM
C[C@H](NC(=O)[C@H](Cc1ccccc1)NC(=O)c1ccc(C(F)(F)F)cc1)C(=O)N[C@H](C(=O)N[C@@H](CCCC[N+](C)(C)C)C(=O)N[C@@H](CO)C(N)=O)C1CCCC1  Kd (Chromobox protein homolog 2 (Homo sapiens, UniProt Q14781); binding, ITC): 0.73 µM
OC[C@H]1O[C@@H](OCc2cn([C@@H]3O[C@H](CO)[C@@H](n4cc(CCCCc5cn([C@H]6[C@H](O)[C@@H](O)[C@H](n7cc(CO[C@@H]8O[C@H](CO)[C@H](O)[C@H](O)[C@H]8O)nn7)O[C@@H]6CO)nn5)nn4)[C@H](O)[C@H]3O)nn2)[C@H](O)[C@@H](O)[C@H]1O  Kd (lecA; binding, ITC; pH 7.5): 0.013 µM and 0.012 to 0.013 µM
Cc1cccc2c1N(C(=O)n1ccnn1)CC2  Kd (KAI2 (Arabidopsis thaliana, UniProt Q9SZU7, Y124F); binding, ITC): no binding
CC1=CC(C)(C)Nc2c(C(=O)O)cc(C)cc21  Kd (E3 ubiquitin-protein ligase CBL-C (Homo sapiens, UniProt Q9ULV8); binding, NMR): 1200 µM
C[C@H](NC(=O)[C@H](CCCCNCC(=O)O)NC(=O)[C@H](Cc1ccccc1)NC(=O)[C@H](CCC(=O)O)NC(=O)[C@@H](N)CC(=O)O)C(=O)N[C@@H](CC(=O)O)C(=O)N[C@@H](CCC(=O)O)C(=O)O  Kd (Advanced glycosylation end product-specific receptor (AGER, Homo sapiens, UniProt Q15109); binding, fluorescence): 87 µM
CCOC(=O)C1=CN([C@@H]2O[C@H](CO)[C@@H](O)[C@H]2O)C=CC1  Kd (NAD-dependent protein deacylase sirtuin-5, mitochondrial (SIRT5, Homo sapiens, UniProt Q9NXA8); isothermal titration calorimetry; added: NAD+): 6.6 ± 1.5 µM
NC(=O)CN1C(=O)C(O)(CC(=O)c2cccc(N)c2)c2ccccc21 (stereo not shown)  Kd (uncharacterized protein (Leishmania donovani, UniProt A0A3Q8IA09); competitive ITC; added: aspartate 60 µM): 2.4 µM
Nc1ncnc2c1ncn2[C@@H]1O[C@H](CO)[C@@H](O[C@H]2O[C@H](CO)[C@@H](OP(=O)(O)O)[C@H](OP(=O)(O)O)[C@H]2O)[C@H]1O  Kd (Inositol 1,4,5-trisphosphate-gated calcium channel ITPR1, IP3-binding core (Itpr1, Rattus norvegicus, UniProt P29994, R568Q); binding, 3H-IP3 competition; IP3-binding core IBC^R568Q): 0.0264 µM
O=C(COc1ccc(F)cc1)N[C@@H](Cc1cn(CCNC(=O)c2ccc(S[C@@H]3O[C@H](CO)[C@H](O)[C@H](O)[C@H]3O)cc2)nn1)C(=O)NCCO  Kd (lecA; binding, ITC): 8.6 µM
CO[C@H](C(=O)[C@@H](O)[C@@H](C)O)[C@@H]1Cc2cc3cc(O[C@H]4C[C@@H](O[C@H]5C[C@@H](O)[C@H](O)[C@@H](C)O5)[C@H](O)[C@@H](C)O4)c(C)c(O)c3c(O)c2C(=O)[C@H]1O[C@H]1C[C@@H](O[C@H]2C[C@@H](O[C@H]3C[C@](C)(O)[C@H](O)[C@@H](C)O3)[C@@H](O)[C@@H](C)O2)[C@H](O)[C@@H](C)O1  Kd (human histone H2A; fluorescence quenching titration; pH 7.0, 25 °C, no Mg2+): 0.96 ± 0.02 µM
CC(C)=CCC[C@](C)(O)[C@H]1CC[C@]2(C)[C@@H]1[C@H](O)C[C@@H]1[C@@]3(C)CC[C@H](O)C(C)(C)[C@@H]3CC[C@]12C  Kd (14-3-3 protein zeta/delta (YWHAZ, Homo sapiens, UniProt P63104); biolayer interferometry; 30 °C): 46.8 ± 1.2e-05 µM
O=c1c(Br)c2oc3c(CN(Cc4ccccn4)Cc4cnccn4)c(O)ccc3nc-2c2ccccc12  Kd (zinc ion; fluorescence titration; pH 7.0, 25 °C): 0.00069 µM

Repeated from above:
CCC(C)N(C)C(=O)c1nc(-c2cccc(C(F)(F)[18F])c2)c2ccccc2n1 (stereo not shown)  Kd (Translocator protein (Tspo, Mus musculus, UniProt P50637); binding; RAW264.7; 2 h, 37 °C): ~0.0133 µM
C[n+]1cc2cc3cc(ccc31)NC(=O)CCCCC(=O)Nc1ccc3c(c1)cc(c[n+]3C)C(=O)NCc1cccc(c1)CNC2=O  Kd (cKIT2 G-quadruplex DNA; microscale thermophoresis): 5.11 ± 0.96 µM
